# Results from different studies.
# Lines come from different studies, so protocols differ. ± marks the error that the study gave.
SMILES,test,system,setting,scale,measurement,result
C=CCN1CCC23c4c5ccc(OC(=O)c6ccc(NCc7cn(CCCCCCCCCCCC)nn7)cc6)c4OC2C(=O)CCC3(O)C1C5 (stereo not shown),,aqueous buffer,"72 (unit not given), pH 7.4, 37 °C",,solubility,0.3 µM
CC1CCC2C(C)C(OC(=O)CCC(=O)N3CCC(Nc4ccc(S(=O)(=O)NC(=O)c5ccc(N6CCN(CC7=C(c8ccc(Cl)cc8)CC(C)(C)CC7)CC6)cc5Oc5cnc6[nH]ccc6c5)cc4[N+](=O)[O-])CC3)OC3OC4(C)CCC1C32OO4 (stereo not shown),,,,,solubility,1.33 µg/mL
NC(=O)c1cc(-c2ccoc2)ccc1OCCc1cccc(F)c1,,PBS,"30 (unit not given), pH 7.4",,solubility,12 µM
Cc1n[nH]c(C)c1CCCOc1cc(OCCCCCCNCCOCCOCCn2cc(CNc3ccc(C(=O)O)cc3)nn2)cc(C(=O)O)c1,,aqueous buffer,"72 (unit not given), pH 7.4, 37 °C",,solubility,≥ 200 µM
C[C@]12COc3ccc(OCc4ccccc4)cc3[C@H]1CCN2,,PBS,"2 h, pH 7.4",,solubility,263 µM
NC(=O)c1cc(-c2ccsc2)ccc1OCCc1cc(F)cc(F)c1,,PBS,"30 (unit not given), pH 7.4",,solubility,< 12 µM
Cn1ccc([C@H](CO)Nc2nc(N3C[C@@H]4C[C@H]3CO4)c3cc(-c4ccccc4)oc3n2)n1,,,,,solubility,380 µM
Cc1cc(=O)oc2cc(NC(=O)OCc3cc(C(C)C)c(N=[N+]=[N-])c(C(C)C)c3)ccc12,HPLC peak area,PBS with 2% DMSO,0.2 mM,baseline: PBS over DMSO,solubility ratio,0.96
CSCC[C@H](NC(=O)[C@H](CCC(=O)O)NC(=O)[C@H](Cc1ccc(O)cc1)NC(=O)[C@@H](NC(=O)[C@H](CC(C)C)NC(=O)[C@H](CC(=O)O)NC(=O)[C@H](CC(C)C)NC(C)=O)[C@@H](C)O)C(=O)N[C@@H](CC(C)C)C(=O)N[C@@H](CO)C(=O)N[C@@H](CC(C)C)C(=O)N[C@@H](CCC(N)=O)C(=O)N[C@@]1(C)CCCC=CCCC[C@@](C)(C(=O)N[C@@H](CC(C)C)C(=O)N[C@@H](CC(N)=O)C(=O)N[C@@H](CCC(=O)O)C(=O)N[C@@H](CO)C(=O)N[C@@H](Cc2ccc(O)cc2)C(N)=O)NC(=O)[C@H](CCCCN)NC(=O)[C@H](C(C)C)NC(=O)[C@H](C(C)C)NC1=O,,,"concentration not given, 24 (unit not given)",,solubility,460 ± 80 µg/mL
NC1CCN(C(=O)Oc2ccc(C3CCCC4(C3)OOC3(O4)C4CC5CC(C4)CC3C5)cc2)CC1 (racemic),,PBS,"pH 7.4, formate salt",,solubility,3.5 to 11.5 µM
CCCCC(CC)COC(=O)CC(C(=O)OCC(CC)CCCC)S(=O)(=O)O.COC(=O)Nc1nc2cc(C(=O)c3ccc(F)cc3)ccc2[nH]1 (stereo not shown),,buffer,"24 h, pH 1.2, room temperature, equilibrium",,solubility,< 1 µg/mL
C[C@@H](Oc1ccc2c(c1)[C@H]1CCN[C@@]1(C)CO2)c1ccccc1,,PBS,"2 h, pH 7.4",,solubility,273 µM
O=C(OCc1ccc(F)cc1)N(Cc1cn(-c2cc3ccc(O)cc3oc2=O)nn1)[c-]1cccc1.[Fe+2].c1cc[cH-]c1,absorbance,PBS,"pH 7.4, 1% DMSO",,solubility,113 ± 11 µM

# For quick reference, copied from above:
SMILES,test,system,setting,scale,measurement,result
Cc1n[nH]c(C)c1CCCOc1cc(OCCCCCCNCCOCCOCCn2cc(CNc3ccc(C(=O)O)cc3)nn2)cc(C(=O)O)c1,,aqueous buffer,"72 (unit not given), pH 7.4, 37 °C",,solubility,≥ 200 µM
